Experimental data collected from several papers.
Numbered parts are unrelated; each lists some results of a single study.
Chain of UniProt O43283 (whole entry, looked up): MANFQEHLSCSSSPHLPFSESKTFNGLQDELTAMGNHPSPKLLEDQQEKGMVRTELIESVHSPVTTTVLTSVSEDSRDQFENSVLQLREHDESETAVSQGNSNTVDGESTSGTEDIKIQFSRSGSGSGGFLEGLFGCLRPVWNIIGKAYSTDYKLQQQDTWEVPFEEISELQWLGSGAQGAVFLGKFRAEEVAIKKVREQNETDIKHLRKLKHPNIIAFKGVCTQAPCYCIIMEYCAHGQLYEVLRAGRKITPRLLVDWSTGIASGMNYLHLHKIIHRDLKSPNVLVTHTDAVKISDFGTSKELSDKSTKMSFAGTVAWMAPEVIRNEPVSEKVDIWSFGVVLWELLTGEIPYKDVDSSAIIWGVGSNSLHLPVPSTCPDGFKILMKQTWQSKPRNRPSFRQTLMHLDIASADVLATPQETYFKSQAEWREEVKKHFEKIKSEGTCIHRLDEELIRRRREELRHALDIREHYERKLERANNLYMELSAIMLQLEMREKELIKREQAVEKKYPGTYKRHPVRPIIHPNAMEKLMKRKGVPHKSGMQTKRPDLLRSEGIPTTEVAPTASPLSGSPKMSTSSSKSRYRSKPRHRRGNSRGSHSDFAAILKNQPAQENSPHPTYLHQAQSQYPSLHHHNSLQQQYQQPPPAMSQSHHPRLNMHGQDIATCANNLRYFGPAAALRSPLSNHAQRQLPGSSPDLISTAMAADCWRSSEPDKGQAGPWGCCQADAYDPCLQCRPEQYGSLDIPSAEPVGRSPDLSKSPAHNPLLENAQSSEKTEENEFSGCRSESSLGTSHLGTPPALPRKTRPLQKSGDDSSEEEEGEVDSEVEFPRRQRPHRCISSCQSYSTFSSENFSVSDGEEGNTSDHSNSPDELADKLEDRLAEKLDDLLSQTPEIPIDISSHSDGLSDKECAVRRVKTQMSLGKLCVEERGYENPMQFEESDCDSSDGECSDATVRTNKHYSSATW

Series 1 — technique: RNAcompete; form: RNA; matrix: in vitro; tested at: 20 nM; notes: 7-mer, probes averaged, single round; relative to: mean of 7-mers; reading: higher = stronger binding
Target: PABPC1L2, full length, GST fusion (mouse, UniProt A0ABA7IW68)
Construct (chain): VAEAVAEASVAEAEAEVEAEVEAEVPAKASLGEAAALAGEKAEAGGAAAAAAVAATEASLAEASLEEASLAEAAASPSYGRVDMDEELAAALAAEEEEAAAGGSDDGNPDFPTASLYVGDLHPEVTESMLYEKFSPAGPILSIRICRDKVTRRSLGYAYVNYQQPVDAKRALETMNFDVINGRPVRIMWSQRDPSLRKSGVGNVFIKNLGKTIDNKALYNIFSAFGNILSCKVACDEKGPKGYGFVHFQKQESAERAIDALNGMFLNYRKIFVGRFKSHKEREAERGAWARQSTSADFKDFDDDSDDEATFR
Sequence	7-mer Z-score
UAUCCAC	-0.345
ACCACGA	0.0388
UCGAGGA	0.046
CGCAGUG	-0.159
AGGGCUU	-0.0736
GGGAUCC	0.00979
UUAGUUG	-0.298
CGCUUUU	-0.17

Series 2 — technique: RNA Bind-n-Seq; form: RNA; matrix: in vitro; tested at: 20 nM; notes: 6-mer, flanks averaged, single round; with: 150 mM LiCl; relative to: input library; reading: higher = stronger binding
Target: TAR DNA-binding protein 43, full length, His tag (TARDBP, Homo sapiens, UniProt Q13148, residues 1-414)
Sequence	6-mer enrichment (R)
CCCUAG	0.974
CUACUA	0.849
UUUUUC	1.39
UAUGGU	1.21
CUACUU	0.91
CUGCUU	0.949
ACAAGA	0.84
GACGGC	0.927

Series 3 — technique: RNA Bind-n-Seq; form: RNA; matrix: in vitro; tested at: not given; relative to: input RNA pool; reading: higher = stronger binding
Target: RING finger protein unkempt homolog, zinc fingers 1-6, GST-SBP tag (UNK, Homo sapiens, UniProt Q9C0B0, residues 30-357)
Chain of UniProt Q9C0B0 (30-357, looked up): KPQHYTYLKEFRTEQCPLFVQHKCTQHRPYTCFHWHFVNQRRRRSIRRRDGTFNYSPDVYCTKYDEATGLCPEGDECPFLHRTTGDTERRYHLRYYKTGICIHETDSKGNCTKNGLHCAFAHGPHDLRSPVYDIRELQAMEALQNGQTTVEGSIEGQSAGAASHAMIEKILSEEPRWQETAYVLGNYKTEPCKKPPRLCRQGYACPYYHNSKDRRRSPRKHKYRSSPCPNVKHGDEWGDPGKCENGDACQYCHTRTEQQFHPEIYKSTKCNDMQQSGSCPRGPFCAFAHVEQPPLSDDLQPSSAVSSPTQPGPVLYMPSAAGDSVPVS
Notes: RNA with constant flanks, human and mouse sites, ends assumed
Constant ends, left off below: GGGAGUUCUACAGUCCGACGAUC … CAACAGAGGAUUGAGCAUCA
Sequence	bound/input enrichment [ratio]
CGAGUAAUGACGUGUGUGGCUGGGACCUUCUUUAUUCUGUGUUAAUGGCUAACCUGUUACACUGGGCUGGGUUGGGUAGGGUGUUCUGGCUUUUUUGUGGGGUUUUUAUUUUUAAAGAAA	1.13
ACAAAACAGAGCGAGAAAGCUUCUCCCUGCAGUCUUCUUGGAGGCCUCCUGGUUUCUCACCCAUUGUUGGUGGGUGUAUUUCAAUUUUUUGAUUCCCUGGACUGUGGGUUAUGAAAUCAA	0.164
CAGGCCCUCCAGGCCCAGCAGGAGGAGCAGCAACUGCGGUACCUGCAGAGGGAGGGCCAGAGCUCCAGGGCCCUGGAGGAGUUGAAACUAUCUUUGGAGAAGCAGCUUGCUCAAAACAAC	0.0777
UCCAUGGAUUCUGAGGUCUUGGAGAUGUCACCUGAAAAGUCAGAUGGAAUAGUGGAGGGGAUAGAUGUAAAUGGACCAAAAGCACAGCUGAUGCUGCGGUACCCAGAUGGAAAAAGGGAA	0.82
CUAUCACUAUGGCAAAAACAUAAAUAUUAUCUCAUUUCAGUGUGUGGAGUUGUGGUUGUAGUGUUUGCCUGGUACAUCACCCAUGAUGUCAAUUAAAAAAAGUUUUGAUCUUUUAAUGUA	0.292
CCACCAGAUUCCAGCCAACAUGACUCUUGCAGCCUAUAAGGAGAAGAUGAAGGAACUCCCACUAGUGUCUCUGUUCUGCUCUUGCUUCUUGUCUGAUCCCCUGAAUAAAUCAUCCUACAA	1.08
AUCAAUCAAGCGGCCCUUCUCAGCAUUCCUGGCUUUGUUGAGCGGCUUUGCAAACUGGCGACUCGAAAGGUGUCAGAGUCAACGGGCACAGCCAGCUUCCUUCAGGAGUUGGAAGAGUGG	0.123
GAAAUCCUAGGGCGCAGACAACAGCUAGAGACACCGAGUGAUGAGGAUAAUGACUCUUCCUUAAGUGAGUGUCUGUCUUCUCCCUCAUCUAGUCUCCAUUUUGGGGGCUCUGAUACAGUG	0.175

Mixed results
Structure (SMILES)	target	test	setting	endpoint	value
C[C@@]1(Cc2ccc(C#N)cc2)C(=O)N(c2cc(Cl)cc(Cl)c2)c2ncc(C(=O)NC3(c4nc(C5CCC5)no4)CC3)n21	Mitogen-activated protein kinase kinase kinase 13 (MAP3K13, Homo sapiens, UniProt O43283)	cell-free assay, competition with immobilised ligand	1 µM	remaining binding	100%

Repeated from above (series 3):
Sequence	bound/input enrichment [ratio]
UCCAUGGAUUCUGAGGUCUUGGAGAUGUCACCUGAAAAGUCAGAUGGAAUAGUGGAGGGGAUAGAUGUAAAUGGACCAAAAGCACAGCUGAUGCUGCGGUACCCAGAUGGAAAAAGGGAA	0.82
CUAUCACUAUGGCAAAAACAUAAAUAUUAUCUCAUUUCAGUGUGUGGAGUUGUGGUUGUAGUGUUUGCCUGGUACAUCACCCAUGAUGUCAAUUAAAAAAAGUUUUGAUCUUUUAAUGUA	0.292
GAAAUCCUAGGGCGCAGACAACAGCUAGAGACACCGAGUGAUGAGGAUAAUGACUCUUCCUUAAGUGAGUGUCUGUCUUCUCCCUCAUCUAGUCUCCAUUUUGGGGGCUCUGAUACAGUG	0.175
